# Measured values gathered from unrelated publications.
# Parts stem from different laboratories: compare values within a part only.

# Series 1
# Target: Histone acetyltransferase KAT6A, winged helix 1, GST fusion (KAT6A, Homo sapiens, UniProt Q92794, residues 1-85)
# Method: protein binding microarray
# Form: double-stranded DNA, one strand shown
# Sample: in vitro
# Tested at: not given
# Notes: 8-mer, flanks averaged, mean of 2 arrays, mostly near background
# Reference: not given
# Direction: higher = stronger binding
# Target sequence (chain): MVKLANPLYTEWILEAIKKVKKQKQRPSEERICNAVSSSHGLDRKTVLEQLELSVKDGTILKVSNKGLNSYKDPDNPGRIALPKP
Strand,E-score
AGACTCGA,-0.0184
AACTTCTT,-0.234
ATTCTTCC,-0.0657
AGGGTATG,-0.323
GTTCCATA,0.0406
CCACAAAC,-0.154
ACAATTAA,0.0498
AAAGTCGG,0.0191
CCGTCGCA,0.43
ACTAGTCG,-0.099
GTGTACAA,0.0352
AATGCCAA,-0.163
CAACAGTA,-0.246
GAGCGGCA,0.405
AGCATTAA,-0.178
ATGGCTGA,-0.204
AGGTAAGC,-0.0152
TCTGTTAA,-0.0775
ATGGAACA,-0.289
AGGTGCTA,-0.11

# Series 2
# Target: RING finger protein unkempt homolog, zinc fingers 1-6, SBP tag (UNK, Homo sapiens, UniProt Q9C0B0, residues 30-357)
# UniProt Q9C0B0, sequence (30-357, looked up): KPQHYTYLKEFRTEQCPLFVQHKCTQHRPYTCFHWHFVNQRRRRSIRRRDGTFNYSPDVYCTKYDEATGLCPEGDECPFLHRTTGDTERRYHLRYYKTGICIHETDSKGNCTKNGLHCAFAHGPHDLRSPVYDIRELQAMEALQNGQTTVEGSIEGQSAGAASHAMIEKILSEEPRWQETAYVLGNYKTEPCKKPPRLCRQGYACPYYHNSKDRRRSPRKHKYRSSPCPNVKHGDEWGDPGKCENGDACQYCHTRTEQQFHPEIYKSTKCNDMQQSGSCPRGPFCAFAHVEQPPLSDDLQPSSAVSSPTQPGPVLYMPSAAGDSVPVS
# Method: RNA Bind-n-Seq
# Form: RNA
# Sample: in vitro
# Tested at: 100 nM
# Notes: RNA with constant flanks, vertebrate orthologous sites, ends assumed
# Reference: input RNA pool
# Direction: higher = stronger binding
# Constant ends, left off below: GGGAGUUCUACAGUCCGACGAUC … CAACAGAGGAUUGAGCAUCA
Strand,bound/input enrichment [ratio]
UGUAUGUAGAGAAAAAUUUUCAUUGCUCCCCACCAUCGUGAAAUUCUCUAGCAAUUUAUUUAGAAUCUUAAUUUUUCUAAUUCAAGCACACUGUAUUAGUCAUUUUUAGCCCAUAAUUAA,1.65
UUCAUAAUCACGCUAAUCGUAAGCUGGAGACGUGUAACAUUGUGUAGCCUUUUGUACAAAUAGACAGAUAGGAAUGGUCCCAUUAGUUUCCUUUUUAAUAUGCUUAAAGUAAGCAGGUGG,4.38
AAUUUUUUAAAGUUUUUUAAUUUAAUUUUUCCUUUUGGGGGUAAAGUUUGCUCUACCAAAUAGUGAUCGUAACAAAUUGAUCUGUUUUGGAUGUUGCUAUAGUGACAUGCAGUUAUACAU,0.376
CUAAUUUCUAGUACUUAAGCCAACCAGUCUAAAUACUAUUUAUUUGUGUAAGUUUGUACAUAGAAAUACCAGCCUCAUUGCAGGGGCUUUUUGUUUGUUUAUUCAUUUUUGUUUUAAUGA,0.501
AUCCUUUCGAGCUGUCUCCGGCCGGGGUCGAGGACCAGUCGUUUCAGCGAGGACCUGCAUUUCAAACAAUUUUUUAAAUUGUUGUAUAGGAAGAGAUGUGCCGAAAACAGCAUCUCAAAG,0.275
UCUGUAGAGAACAAUUUUCACUGAAGCCAUUGGCAAAUUCCCCCCCCCACCAGACUUUUCUUUGGAGCUCUUUAAUUUCAUACAAUCUUGCUGUGUCGGUCAUUGUUAGCCCUGAAUCCA,1.09
UGAAAGUUACAGACAAGAGUCUGAAAACAGAAAUACAGGGUCUUGGUUAUCAUCAUCUUUAAGGAACAGAUGUACACCACUGUUCUCUAGAAGGAGGAGAGAAGGAAGAGAUGAAUCUGC,0.418
AAGGGGAUGGCCCGAUCCCACCACUGUUUAUUCUGUAAACUUCAACCUGUACAUAACGUUUAGCAUUCCUAUUGUAACAAAAUUAAUUUUUACAAAAUAAAUUAUAUUUCCUAGUCUAAU,1.06

# Series 3
# Target: Interferon regulatory factor 3, full length, phosphomimetic (IRF3, Homo sapiens, UniProt Q14653, residues 1-427, S386D/S396D/S398D/S402D/T404D/S405D)
# UniProt Q14653, sequence (whole entry, unmodified, looked up): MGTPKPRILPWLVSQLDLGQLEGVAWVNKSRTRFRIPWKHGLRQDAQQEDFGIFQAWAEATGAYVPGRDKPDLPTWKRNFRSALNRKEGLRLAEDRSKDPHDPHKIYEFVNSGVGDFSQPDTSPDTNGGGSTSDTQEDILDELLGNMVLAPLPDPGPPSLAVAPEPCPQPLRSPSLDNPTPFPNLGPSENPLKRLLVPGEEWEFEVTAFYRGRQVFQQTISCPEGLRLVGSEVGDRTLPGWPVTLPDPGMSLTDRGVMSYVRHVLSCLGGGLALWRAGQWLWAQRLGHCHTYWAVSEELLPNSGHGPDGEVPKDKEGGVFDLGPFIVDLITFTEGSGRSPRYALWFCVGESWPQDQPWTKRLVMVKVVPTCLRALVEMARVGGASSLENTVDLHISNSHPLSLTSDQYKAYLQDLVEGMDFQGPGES
# Method: protein-binding microarray
# Form: double-stranded DNA, one strand shown
# Sample: in vitro
# Tested at: 2540 nM top
# Notes: 60-bp whole probe
# Added: salmon DNA 0.4 mg/ml
# Reference: random background probes
# Direction: higher = stronger binding
# Constant ends, left off below: GCCTAGCAC … GTCTTGATTCGCTTGACGCTGCTG
Strand,fitted relative affinity
TCACTTTTAATTTTTAAACTGTGCTAG,2.43 z-score
GACGGTTTCCTTTCCGTGACGTGCTAG,10.1 z-score
CTGGTGCTCATCTGTCATGTTGTGCTA,0.175 z-score
GACGGTATCAACACTGGGGACGTGCTA,0.274 z-score
AGTCTTCTCCTCTAGGTTCTCGTGCTA,0.249 z-score
GACGGTCTCCTACCGCTGACGTGCTAG,0.661 z-score
TCATTTTTTTTCATCATTGCGTGCTAG,1.03 z-score
GACGATATCGGGACTGAAGACGTGCTA,0.368 z-score
GGATTTCAGTTTCTCTTTCCGTGCTAG,6.12 z-score
TTATATATCAGTCTCGATTAGTGCTAG,1.31 z-score
TCATCTTTCCTTCTTGAACTGTGCTAG,6.17 z-score
TTAGATCTCGGACTGGGTTAGTGCTAG,-0.361 z-score
GTAGGTCTCGGTTTCGGTTAGTGCTAG,5.2 z-score
TTAGGACTGCGGACTGGGTTAGTGCTA,-0.837 z-score
TCAATGATCTTCCTTCATACTGTGCTA,-0.206 z-score

# Series 4
# Target: Prothrombin, mature alpha-thrombin (F2, Homo sapiens, UniProt P00734)
# Method: aptamer microarray, sandwich
# Form: DNA with 2'F-ANA
# Sample: in vitro
# Tested at: 200 nM
# Notes: whole 15-mer aptamer, many near background
# Added: Cy3 exosite-II aptamer, 400 nM
# Direction: higher = stronger binding
# Strand: GGTTGGTGTGGTTGG
Modification,mean fluorescence intensity
2'F-ANA at 1 2 4 7 8 9 12 13 14 15,56.1 a.u.
2'F-ANA at 1 3 4 6 11 12 13,240 a.u.
2'F-ANA at 3 8 9 12 13 15,1130 a.u.
2'F-ANA at 1 3 4 8 9 10 12 15,78.9 a.u.
2'F-ANA at 1 4 6 8 9 10 11,48.6 a.u.
2'F-ANA at 2 3 5 7 8,138 a.u.
2'F-ANA at 1 2 3 8 11 12 13 14 15,96 a.u.
2'F-ANA at 2 3 4 7 10 12 13 15,248 a.u.
2'F-ANA at 2 3 4 5 6 7 8 9 11 12 14,77.9 a.u.
2'F-ANA at 1 2 6 7 8 9 11 13,136 a.u.
2'F-ANA at 5 6 7 9 13,52.6 a.u.
2'F-ANA at 1 2 3 4 7 8 9 11 12 14 15,76.1 a.u.
2'F-ANA at 2 3 5 7 8 11 15,93.3 a.u.
2'F-ANA at 1 7 8 9 13,159 a.u.
2'F-ANA at 3 5 6 9 10 13,49.4 a.u.
2'F-ANA at 1 2 3 7 13 14 15,72.5 a.u.
2'F-ANA at 2 7 10 14 15,91.8 a.u.
2'F-ANA at 1 4 5 6 8 9 10 11 12 14 15,52.6 a.u.
2'F-ANA at 1 3 4 5 8 11 12 13 14,44.1 a.u.
2'F-ANA at 1 2 3 7 8 10 11 13,62.1 a.u.
2'F-ANA at 2 10 11 12,178 a.u.
